{"data": "Results collected from several papers", "note": "Parts stem from different laboratories: compare values within a part only."}
{"data": "Set 1", "target": "Sal-like protein 4, full length isoform A (SALL4, Homo sapiens, UniProt Q9UJQ4, residues 1-1053)", "method": "universal PBM", "molecule type": "double-stranded DNA, one strand shown", "sample": "in vitro", "concentration": "600 nM", "notes": "8-mer, flanks averaged, mean of replicates", "direction": "higher = stronger binding", "sequence of UniProt Q9UJQ4 (whole entry, looked up)": "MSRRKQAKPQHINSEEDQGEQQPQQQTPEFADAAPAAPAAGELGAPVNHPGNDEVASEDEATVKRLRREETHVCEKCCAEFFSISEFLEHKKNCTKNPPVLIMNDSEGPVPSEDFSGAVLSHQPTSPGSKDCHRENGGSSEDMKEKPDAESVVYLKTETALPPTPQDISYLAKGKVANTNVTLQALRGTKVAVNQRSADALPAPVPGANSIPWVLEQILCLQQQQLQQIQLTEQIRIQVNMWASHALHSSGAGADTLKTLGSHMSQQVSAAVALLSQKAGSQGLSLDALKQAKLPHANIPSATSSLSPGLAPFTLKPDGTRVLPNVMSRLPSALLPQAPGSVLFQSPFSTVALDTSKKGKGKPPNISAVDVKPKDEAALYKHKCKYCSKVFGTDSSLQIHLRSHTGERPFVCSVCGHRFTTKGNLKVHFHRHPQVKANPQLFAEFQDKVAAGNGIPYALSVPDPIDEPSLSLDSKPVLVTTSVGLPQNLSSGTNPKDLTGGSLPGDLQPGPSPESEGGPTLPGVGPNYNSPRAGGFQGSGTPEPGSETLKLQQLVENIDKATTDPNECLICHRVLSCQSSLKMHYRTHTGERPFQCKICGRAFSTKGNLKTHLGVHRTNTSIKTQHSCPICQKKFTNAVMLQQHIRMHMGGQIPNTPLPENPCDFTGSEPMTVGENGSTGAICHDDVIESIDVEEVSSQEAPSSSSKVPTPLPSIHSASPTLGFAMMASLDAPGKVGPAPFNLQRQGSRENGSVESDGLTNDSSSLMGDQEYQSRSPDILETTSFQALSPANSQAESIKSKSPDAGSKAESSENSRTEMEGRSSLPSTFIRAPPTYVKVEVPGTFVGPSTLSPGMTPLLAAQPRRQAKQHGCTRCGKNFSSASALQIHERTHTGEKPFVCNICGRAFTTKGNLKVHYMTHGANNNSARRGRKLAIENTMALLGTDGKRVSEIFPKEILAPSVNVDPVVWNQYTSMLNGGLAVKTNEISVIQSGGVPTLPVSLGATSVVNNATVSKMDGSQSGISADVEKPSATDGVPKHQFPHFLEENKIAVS"}
{"Sequence": "AACGGAGT", "E-score": 0.00643}
{"Sequence": "ACCTCATC", "E-score": -0.136}
{"Sequence": "GTGGCATA", "E-score": 0.0784}
{"Sequence": "ACTCTAGC", "E-score": -0.092}
{"Sequence": "ATACGCGA", "E-score": 0.00377}
{"Sequence": "AATCTGTG", "E-score": 0.0621}
{"Sequence": "GTTCTGAA", "E-score": 0.119}
{"Sequence": "AGGGGTAG", "E-score": -0.199}
{"Sequence": "GGGGATAA", "E-score": 0.18}
{"Sequence": "CCCCCGGA", "E-score": -0.3}
{"Sequence": "AGCATACG", "E-score": 0.029}
{"Sequence": "ACCAAACG", "E-score": -0.214}
{"Sequence": "TCTTGTAA", "E-score": 0.288}
{"Sequence": "CAGACCCC", "E-score": -0.358}
{"Sequence": "CGGTCATA", "E-score": 0.11}
{"Sequence": "GGAAGACC", "E-score": -0.307}
{"Sequence": "AGATCGAC", "E-score": -0.128}
{"Sequence": "GAGGACTA", "E-score": 0.0715}
{"Sequence": "ATTGGATG", "E-score": 0.172}
{"Sequence": "GGTATGAC", "E-score": -0.104}
{"data": "Set 2", "target": "RNA binding protein fox-1 homolog 2, RRM domain, GST-SBP tag (RBFOX2, Homo sapiens, UniProt O43251-10, residues 100-194)", "method": "RNA Bind-n-Seq", "molecule type": "RNA", "sample": "in vitro", "concentration": "365 nM", "notes": "natural RNA segment, single round, ends assumed", "baseline": "no-protein control", "direction": "higher = stronger binding", "all sequences stand within": "GGGAGUUCUACAGUCCGACGAUC … UGGAAUUCUCGGGUGCCAA", "Construct (chain)": "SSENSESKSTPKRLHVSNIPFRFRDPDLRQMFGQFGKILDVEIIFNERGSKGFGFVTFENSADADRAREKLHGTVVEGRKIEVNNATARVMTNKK"}
{"Sequence": "AUGCAGGAACUAGAAACACAUCUUCAGCCUCCUCCUGGGCCAGCUCUUGUGCUACAGGUGGGGCGGAGCCAGCCCCUCACCUUCCUGGUUCCCUGAGGGUCCUCAGGGUG", "RBNS enrichment (R)": 0.416}
{"Sequence": "AGCAGAGAGAGCCCAUCUGCAGAAACCCAGUUGUACUACCUGGGCUUGCUUAAUUUCUACAGGCUGUCUUGUCUUUCAUAUGCUAACCACUAUCUUAAAAUGAAAGACAA", "RBNS enrichment (R)": 0.44}
{"Sequence": "UACUCAUGGGUGGAGGAGACCAGUGCCGACCCCGUGAGAGCUGAAGGUGAUGCUGAGGUCCCUUGUGGAAGCCUCUCUUGGGAAUCUCAACUGCAGAGGAGCUGCCCUCU", "RBNS enrichment (R)": 0.248}
{"Sequence": "AUAUUUGAAUUUCUUUGGGAAGAAAGUAAAUCUGAUGGCUCACUGAUUUUUGAAAAGCCUGAAUAAAAUUGGAAAGACUGGAAAGUUAGGAGAACUGACUAGCUAAACUG", "RBNS enrichment (R)": 0.59}
{"Sequence": "CUGUGUGUAGUCCUGCUUCUUCCAGUCUGCAGUAUUCACUAGAGGCGCCCUUUGCAUGUUGCACUCUGUUCUCAUUUGGAGGUUGGACUCAGACCAGUUAGCACAGUAUU", "RBNS enrichment (R)": 19.9}
{"Sequence": "CUCCGUCUUCCCAGCGGUUCCUGUGCAGAUGCUGCUGAAGAGAGGUGCCGGGGAGGGGCAGAGAGGAAGUGGUCUGUCUGUUACCAUAAGUCUGAUUCUCUUUAACUGUG", "RBNS enrichment (R)": 0.581}
{"Sequence": "UUUUUGGCUUCUGUAAGUAUGCUCUAUGCACCUCUAAUGUUUUAUCAUGUAUUUAUAUGUUGUACACAGUACUGGCUGAUUCUGUAAAUGGAUGUAUUGUACAGAGAACA", "RBNS enrichment (R)": 1.07}
{"Sequence": "UUGGCUCUCCUCUGGCUAGAGUGGGAAGAGGGGGCUGGCCAUGGGGCCCUCCCAGAACCUCAGCAUUUCCUUCCAGCCCAUCCAAACACUGAGGCAGCCUUGGGGAACCC", "RBNS enrichment (R)": 0.909}
{"data": "Set 3", "target": "Cyclic AMP-dependent transcription factor ATF-1 (ATF1, Homo sapiens, UniProt P18846, residues 1-271, full length assumed)", "method": "protein-binding microarray", "molecule type": "double-stranded DNA, one strand shown", "sample": "in vitro", "concentration": "not given", "notes": "k-mer, scored over probes, only values ≥0.25", "direction": "higher = stronger binding", "Construct (chain)": "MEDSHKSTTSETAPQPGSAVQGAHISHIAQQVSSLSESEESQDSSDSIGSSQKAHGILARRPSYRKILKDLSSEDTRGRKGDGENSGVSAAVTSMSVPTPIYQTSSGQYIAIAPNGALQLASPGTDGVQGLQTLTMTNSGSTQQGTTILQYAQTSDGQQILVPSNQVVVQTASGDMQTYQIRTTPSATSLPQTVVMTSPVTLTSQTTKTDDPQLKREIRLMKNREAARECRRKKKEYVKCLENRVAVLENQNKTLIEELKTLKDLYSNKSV"}
{"Sequence": "TACGTGA", "E-score": 0.36}
{"Sequence": "CGTCAAC", "E-score": 0.3}
{"Sequence": "GTGACGA", "E-score": 0.446}
{"Sequence": "ACATCCA", "E-score": 0.27}
{"Sequence": "AATGACA", "E-score": 0.266}
{"Sequence": "AGTTACG", "E-score": 0.265}
{"Sequence": "AAACACA", "E-score": 0.253}
{"Sequence": "CGTCAGC", "E-score": 0.392}
{"Sequence": "CACGTTA", "E-score": 0.251}
{"Sequence": "AACCCCA", "E-score": 0.259}
{"Sequence": "CGTGTCA", "E-score": 0.353}
{"Sequence": "ACTGACG", "E-score": 0.39}
{"Sequence": "AACCCAC", "E-score": 0.25}
{"Sequence": "AGTGACG", "E-score": 0.477}
{"Sequence": "ACGTGTG", "E-score": 0.363}
{"Sequence": "CTCTGAC", "E-score": 0.28}
{"Sequence": "AGGTGAC", "E-score": 0.305}
{"Sequence": "CAATGAC", "E-score": 0.263}
{"Sequence": "GTCATCA", "E-score": 0.405}
{"Sequence": "CATAACG", "E-score": 0.258}
{"data": "Set 4", "target": "RING finger protein unkempt homolog, zinc fingers 1-6, GST-SBP tag (UNK, Homo sapiens, UniProt Q9C0B0, residues 30-357)", "method": "RNA Bind-n-Seq", "molecule type": "RNA", "sample": "in vitro", "concentration": "not given", "notes": "RNA with constant flanks, human and mouse sites, ends assumed", "baseline": "input RNA pool", "direction": "higher = stronger binding", "all sequences stand within": "GGGAGUUCUACAGUCCGACGAUC … CAACAGAGGAUUGAGCAUCA", "sequence of UniProt Q9C0B0 (30-357, looked up)": "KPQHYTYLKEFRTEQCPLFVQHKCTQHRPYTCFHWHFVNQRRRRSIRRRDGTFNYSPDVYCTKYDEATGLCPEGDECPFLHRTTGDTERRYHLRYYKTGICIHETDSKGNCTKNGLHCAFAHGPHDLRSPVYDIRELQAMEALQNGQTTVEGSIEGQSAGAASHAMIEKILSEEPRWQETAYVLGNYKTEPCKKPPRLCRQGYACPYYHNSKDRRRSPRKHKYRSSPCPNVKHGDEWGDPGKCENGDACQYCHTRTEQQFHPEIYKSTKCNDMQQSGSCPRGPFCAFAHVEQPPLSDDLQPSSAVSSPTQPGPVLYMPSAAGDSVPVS"}
{"Sequence": "AAAAAUGCAGUAGAAUGUAAUUCAGUGUUUGUUUAUUGGCUGUUUUUGACAGAUUGCUGAAAUUAAAUGAAUUGAAAGGGAAACUCAGAGUACCAGGGCAUUUUAUUAAAAGGCAAGGAG", "bound/input enrichment [ratio]": 0.503}
{"Sequence": "GAUCCCCUUUUGUGCCACCUAUCCCCUCCCAUUUCUCCUCUGUCCUCUCCCCCUUUUCCAUCUUUCUUUUCCGUUUCCAAAGGAGCAAGCCAAAACCUCAAACCGGCGCCUCUUGGAGGC", "bound/input enrichment [ratio]": 1.35}
{"Sequence": "GAAGAUUUUCUUAAAAAAUGGGAAAGUCCCGCUCAGAACACAGCCCACUUGGAUCAGUUUGAACGAAUCAAGACCCUCGGCACGGGCUCCUUCGGGCGGGUGAUGCUGGUGAAACACAAG", "bound/input enrichment [ratio]": 0.149}
{"Sequence": "AGCCUACUCUGCUUAAGGUAUUCUUUUCCUCAAAGAUGCCCUAGUGCCAUGACUUCAGAAAUGUUUAUUACCGUUUUGAAACAGAAGCCAUUCUGCAUAUGCCUUUGAAUUCCUGCCGUC", "bound/input enrichment [ratio]": 0.207}
{"Sequence": "GGCUCCCCUUCCAAUGAGCUGGUGUCUGGAGGAUCUGACAAUCGGGUGAUUCAUUGGGAACUAGAGAAUAAUCAGGUUUUAAAAUCAGUCCGUCUCCAAGGCCAUGAAGGACCUGUUUGU", "bound/input enrichment [ratio]": 0.632}
{"Sequence": "UAUCUUUACAAGUACCUGUGGAGGCUGAUGGUGAAGGACAUGUCCAAGAUAUACAGCUUGUAUAGCACCCUCUUGGCUCAUAAAAAACUACAUAUAAGAAAUUUUGCAGCCGAAAGUUUU", "bound/input enrichment [ratio]": 0.146}
{"Sequence": "AGCAGUCCAAUAUCAAGCAUAUCUGCAGAUUCUUUCUAUGCAGAUAUUGAUCACCAUACUCCACGAAAUUAUGUCCUAAUUGACGACAUUGGAGAGAUCACCAAAGGAACAGCGGCAUUA", "bound/input enrichment [ratio]": 0.269}
{"Sequence": "CUCCAUUUCUUCCCAUGCUGUAACCCCAGGCUCCACCAGCUGUUCCCCAGUGAUGUUACCUAGCUUCCCUCUACCGUUGUCUACUGACCAUUUCCACUACAUGCCUUUCCUACCUUCCCU", "bound/input enrichment [ratio]": 0.532}
{"data": "Set 5", "target": "Histone acetyltransferase KAT6A, both winged helices, GST fusion (KAT6A, Homo sapiens, UniProt Q92794, residues 1-181)", "method": "protein binding microarray", "molecule type": "double-stranded DNA, one strand shown", "sample": "in vitro", "concentration": "not given", "notes": "8-mer, flanks averaged, mean of 2 arrays, mostly near background", "baseline": "not given", "direction": "higher = stronger binding", "Construct (chain)": "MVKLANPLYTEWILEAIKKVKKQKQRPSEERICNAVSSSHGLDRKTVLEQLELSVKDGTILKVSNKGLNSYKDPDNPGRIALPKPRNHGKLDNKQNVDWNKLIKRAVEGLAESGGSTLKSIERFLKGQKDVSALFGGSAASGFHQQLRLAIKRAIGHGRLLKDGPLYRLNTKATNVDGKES"}
{"Sequence": "AGAGCCTC", "E-score": 0.00479}
{"Sequence": "CGAATGTA", "E-score": 0.0174}
{"Sequence": "CATGTGGC", "E-score": -0.0306}
{"Sequence": "AGGTCAAG", "E-score": -0.195}
{"Sequence": "TATGGAAA", "E-score": -0.223}
{"Sequence": "ATAGCGCA", "E-score": 0.165}
{"Sequence": "ACCATAGG", "E-score": -0.109}
{"Sequence": "GCACCCGA", "E-score": 0.182}
{"Sequence": "CCGGGTAG", "E-score": 0.0951}
{"Sequence": "CATATTGC", "E-score": 0.0162}
{"Sequence": "TAACACGA", "E-score": 0.061}
{"Sequence": "CTAGTGTC", "E-score": -0.0566}
{"Sequence": "AGTTCAGC", "E-score": -0.169}
{"Sequence": "GAAGTGCA", "E-score": -0.0155}
{"Sequence": "AGATACTC", "E-score": -0.0357}
{"Sequence": "CGAACACG", "E-score": 0.187}
{"Sequence": "CGTCAGGA", "E-score": -0.0805}
{"Sequence": "GCGATTCA", "E-score": 0.192}
{"Sequence": "GCTTGATA", "E-score": -0.0365}
{"Sequence": "ACGAGTCG", "E-score": 0.00645}
{"Sequence": "CACAAGTC", "E-score": -0.0583}
{"Sequence": "CGGAATTC", "E-score": 0.0553}
{"Sequence": "GGAGGGCA", "E-score": -0.114}
{"Sequence": "TGCCCACA", "E-score": -0.167}
{"Sequence": "GCATCAGA", "E-score": 0.00671}
